Measured values collected from several papers.
Every numbered part comes from another study and shows a few of its results, in no order.
UniProt P11309, sequence (whole entry, looked up): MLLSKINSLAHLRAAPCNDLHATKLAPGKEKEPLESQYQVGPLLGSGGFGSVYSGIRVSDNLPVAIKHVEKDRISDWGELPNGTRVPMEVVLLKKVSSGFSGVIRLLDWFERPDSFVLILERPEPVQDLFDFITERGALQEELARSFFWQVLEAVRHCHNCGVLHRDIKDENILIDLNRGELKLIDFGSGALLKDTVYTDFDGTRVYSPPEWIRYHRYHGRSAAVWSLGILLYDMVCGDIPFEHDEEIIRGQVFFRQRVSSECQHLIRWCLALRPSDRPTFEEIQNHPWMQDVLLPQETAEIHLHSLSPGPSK
UniProt P23458, sequence (whole entry, looked up): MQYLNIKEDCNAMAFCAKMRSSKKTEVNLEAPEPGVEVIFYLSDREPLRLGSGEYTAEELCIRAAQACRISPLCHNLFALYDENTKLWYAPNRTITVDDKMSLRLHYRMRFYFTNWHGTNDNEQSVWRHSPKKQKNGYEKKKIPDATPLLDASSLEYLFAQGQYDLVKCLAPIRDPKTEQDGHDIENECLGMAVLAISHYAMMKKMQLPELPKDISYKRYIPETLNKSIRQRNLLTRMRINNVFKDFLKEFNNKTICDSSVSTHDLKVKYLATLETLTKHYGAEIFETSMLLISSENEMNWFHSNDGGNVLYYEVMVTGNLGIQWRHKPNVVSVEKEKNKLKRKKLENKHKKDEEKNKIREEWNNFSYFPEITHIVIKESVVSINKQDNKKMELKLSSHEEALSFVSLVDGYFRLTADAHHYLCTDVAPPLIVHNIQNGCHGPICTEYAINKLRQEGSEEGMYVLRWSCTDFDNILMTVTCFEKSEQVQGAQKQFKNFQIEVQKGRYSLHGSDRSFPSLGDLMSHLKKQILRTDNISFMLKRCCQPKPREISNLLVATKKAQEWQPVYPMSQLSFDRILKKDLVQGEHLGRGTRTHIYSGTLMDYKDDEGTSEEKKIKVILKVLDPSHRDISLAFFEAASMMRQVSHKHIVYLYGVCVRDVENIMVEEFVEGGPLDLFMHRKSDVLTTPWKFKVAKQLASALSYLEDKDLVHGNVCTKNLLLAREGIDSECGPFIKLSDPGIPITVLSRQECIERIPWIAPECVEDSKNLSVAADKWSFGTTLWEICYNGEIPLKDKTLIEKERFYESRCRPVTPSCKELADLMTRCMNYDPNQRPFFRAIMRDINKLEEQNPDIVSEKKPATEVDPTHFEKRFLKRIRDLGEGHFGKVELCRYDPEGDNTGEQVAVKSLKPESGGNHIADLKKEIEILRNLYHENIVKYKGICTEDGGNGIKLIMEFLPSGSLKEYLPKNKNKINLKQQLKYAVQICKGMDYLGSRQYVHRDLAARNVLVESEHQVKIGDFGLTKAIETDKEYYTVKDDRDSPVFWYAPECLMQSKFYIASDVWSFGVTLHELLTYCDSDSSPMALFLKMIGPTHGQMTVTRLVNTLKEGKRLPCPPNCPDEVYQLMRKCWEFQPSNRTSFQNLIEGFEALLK
UniProt O60674, sequence (whole entry, looked up): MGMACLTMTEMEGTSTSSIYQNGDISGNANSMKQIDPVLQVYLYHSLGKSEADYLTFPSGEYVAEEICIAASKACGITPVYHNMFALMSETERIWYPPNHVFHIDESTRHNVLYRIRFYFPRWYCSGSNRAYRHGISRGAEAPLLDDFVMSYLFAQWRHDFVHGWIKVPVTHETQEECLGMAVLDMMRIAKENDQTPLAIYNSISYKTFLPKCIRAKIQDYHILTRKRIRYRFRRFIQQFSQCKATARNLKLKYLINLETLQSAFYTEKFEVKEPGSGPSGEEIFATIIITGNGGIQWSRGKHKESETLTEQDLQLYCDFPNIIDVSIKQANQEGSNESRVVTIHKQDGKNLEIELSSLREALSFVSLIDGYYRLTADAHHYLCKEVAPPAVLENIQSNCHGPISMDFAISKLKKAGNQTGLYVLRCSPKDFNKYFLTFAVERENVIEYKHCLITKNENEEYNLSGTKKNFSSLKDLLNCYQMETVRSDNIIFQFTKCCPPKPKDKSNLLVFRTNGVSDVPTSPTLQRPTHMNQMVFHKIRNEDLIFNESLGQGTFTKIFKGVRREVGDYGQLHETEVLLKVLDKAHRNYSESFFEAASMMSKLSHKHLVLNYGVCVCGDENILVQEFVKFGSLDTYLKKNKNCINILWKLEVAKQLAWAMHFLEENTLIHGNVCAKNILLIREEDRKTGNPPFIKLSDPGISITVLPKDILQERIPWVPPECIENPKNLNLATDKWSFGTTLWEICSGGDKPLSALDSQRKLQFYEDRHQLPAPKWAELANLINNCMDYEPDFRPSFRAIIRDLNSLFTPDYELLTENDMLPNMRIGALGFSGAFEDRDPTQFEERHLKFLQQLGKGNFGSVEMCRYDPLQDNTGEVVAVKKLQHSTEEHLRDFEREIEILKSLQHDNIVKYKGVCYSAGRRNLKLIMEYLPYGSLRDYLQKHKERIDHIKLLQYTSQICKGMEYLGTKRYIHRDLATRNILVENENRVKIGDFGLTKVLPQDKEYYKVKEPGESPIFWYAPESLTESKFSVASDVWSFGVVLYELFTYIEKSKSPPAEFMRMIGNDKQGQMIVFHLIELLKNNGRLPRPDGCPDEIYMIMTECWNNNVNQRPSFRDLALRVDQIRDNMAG
UniProt Q04759, sequence (whole entry, looked up): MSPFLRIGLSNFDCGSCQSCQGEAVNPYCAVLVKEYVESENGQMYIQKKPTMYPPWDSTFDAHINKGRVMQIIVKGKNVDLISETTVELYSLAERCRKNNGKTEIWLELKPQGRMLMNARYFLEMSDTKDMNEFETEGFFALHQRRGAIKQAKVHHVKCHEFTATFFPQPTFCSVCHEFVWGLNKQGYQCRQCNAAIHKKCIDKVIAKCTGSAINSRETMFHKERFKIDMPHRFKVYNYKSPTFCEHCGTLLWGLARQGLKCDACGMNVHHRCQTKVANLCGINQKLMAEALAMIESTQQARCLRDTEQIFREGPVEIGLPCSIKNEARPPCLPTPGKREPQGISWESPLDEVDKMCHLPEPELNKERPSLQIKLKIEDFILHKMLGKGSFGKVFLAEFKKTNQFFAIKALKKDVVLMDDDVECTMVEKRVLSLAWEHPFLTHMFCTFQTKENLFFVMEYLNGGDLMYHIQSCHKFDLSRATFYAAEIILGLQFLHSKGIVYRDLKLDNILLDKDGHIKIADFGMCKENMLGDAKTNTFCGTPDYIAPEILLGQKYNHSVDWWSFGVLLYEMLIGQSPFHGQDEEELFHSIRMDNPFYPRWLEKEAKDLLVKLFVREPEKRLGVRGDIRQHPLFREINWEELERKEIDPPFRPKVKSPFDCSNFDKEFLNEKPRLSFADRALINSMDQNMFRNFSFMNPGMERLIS
UniProt Q8N5S9, sequence (whole entry, looked up): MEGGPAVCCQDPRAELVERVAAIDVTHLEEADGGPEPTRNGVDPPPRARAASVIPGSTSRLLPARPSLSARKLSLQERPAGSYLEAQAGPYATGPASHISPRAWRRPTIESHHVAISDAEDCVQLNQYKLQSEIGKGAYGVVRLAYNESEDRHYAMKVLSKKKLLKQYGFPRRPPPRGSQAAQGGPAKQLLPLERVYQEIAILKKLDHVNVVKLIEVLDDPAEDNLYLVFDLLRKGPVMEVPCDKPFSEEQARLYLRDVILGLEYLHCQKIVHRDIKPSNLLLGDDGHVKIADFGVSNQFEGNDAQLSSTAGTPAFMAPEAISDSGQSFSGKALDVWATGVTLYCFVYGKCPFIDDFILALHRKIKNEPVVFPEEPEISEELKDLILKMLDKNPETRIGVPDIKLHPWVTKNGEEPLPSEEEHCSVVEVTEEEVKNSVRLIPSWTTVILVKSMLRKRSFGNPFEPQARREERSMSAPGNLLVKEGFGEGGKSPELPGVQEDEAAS
UniProt O96013, sequence (whole entry, looked up): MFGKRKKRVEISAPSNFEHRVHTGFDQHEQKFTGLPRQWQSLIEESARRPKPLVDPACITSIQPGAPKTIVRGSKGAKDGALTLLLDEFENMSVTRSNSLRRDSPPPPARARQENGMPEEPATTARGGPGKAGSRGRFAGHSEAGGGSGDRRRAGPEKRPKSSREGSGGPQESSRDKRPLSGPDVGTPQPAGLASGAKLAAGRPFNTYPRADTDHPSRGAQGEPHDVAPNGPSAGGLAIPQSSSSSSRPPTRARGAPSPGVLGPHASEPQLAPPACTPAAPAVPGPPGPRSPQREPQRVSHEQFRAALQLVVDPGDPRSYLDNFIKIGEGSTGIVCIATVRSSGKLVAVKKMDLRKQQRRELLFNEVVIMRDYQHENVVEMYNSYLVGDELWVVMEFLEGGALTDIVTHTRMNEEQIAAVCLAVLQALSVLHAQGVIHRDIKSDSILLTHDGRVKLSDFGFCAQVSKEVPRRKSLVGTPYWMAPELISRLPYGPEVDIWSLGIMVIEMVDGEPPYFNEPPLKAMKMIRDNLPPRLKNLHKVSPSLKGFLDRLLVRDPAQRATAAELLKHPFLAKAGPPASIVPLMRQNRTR
UniProt Q96SB4, sequence (whole entry, looked up): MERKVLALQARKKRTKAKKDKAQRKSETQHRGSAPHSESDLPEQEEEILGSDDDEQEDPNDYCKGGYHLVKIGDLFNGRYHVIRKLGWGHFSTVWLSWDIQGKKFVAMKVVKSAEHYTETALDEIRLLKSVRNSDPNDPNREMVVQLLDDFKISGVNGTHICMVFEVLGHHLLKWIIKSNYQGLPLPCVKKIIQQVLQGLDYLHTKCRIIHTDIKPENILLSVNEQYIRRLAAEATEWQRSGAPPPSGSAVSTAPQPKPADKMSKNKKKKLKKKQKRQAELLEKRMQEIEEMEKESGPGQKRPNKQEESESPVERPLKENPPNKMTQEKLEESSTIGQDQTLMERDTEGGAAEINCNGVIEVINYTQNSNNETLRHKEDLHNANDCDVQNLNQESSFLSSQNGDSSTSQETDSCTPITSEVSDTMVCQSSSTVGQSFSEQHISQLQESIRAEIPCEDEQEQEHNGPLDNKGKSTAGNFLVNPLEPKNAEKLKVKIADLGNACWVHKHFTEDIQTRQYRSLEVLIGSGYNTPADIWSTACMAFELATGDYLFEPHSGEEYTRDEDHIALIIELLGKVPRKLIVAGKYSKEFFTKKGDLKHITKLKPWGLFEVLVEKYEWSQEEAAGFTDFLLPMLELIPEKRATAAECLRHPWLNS

Block 1
Target: Prothrombin, mature alpha-thrombin (F2, Homo sapiens, UniProt P00734)
Method: aptamer microarray, sandwich
Form: DNA with 2'F-ANA
Matrix: in vitro
Tested at: 200 nM
Setting: whole 15-mer aptamer, many near background
Together with: Cy3 exosite-II aptamer, 400 nM
Reading: higher = stronger binding
Sequence: GGTTGGTGTGGTTGG
Modification	mean fluorescence intensity [a.u.]
2'F-ANA at 1 2 3 4 5 9 14	45.4
2'F-ANA at 1 2 5 6 7 8 10 13 15	52
2'F-ANA at 2 4 5 6 7 10 12 14 15	51
2'F-ANA at 2 3 5 6 7 14	70.6
2'F-ANA at 3 5 7 8 9 10 13 15	59.5
2'F-ANA at 7 10 15	206
2'F-ANA at 2 3 4 9 10 13 14	176
2'F-ANA at 1 2 3 5 8 9 10 11 12 13 14	51

Block 2
SMILES: CCOc1cc2ncnc(Nc3cccc(Br)c3)c2cc1OCC
Observed: enzyme activity
Action: inhibitor
Tested at: 0.5 µM
Baseline: control
target	remaining activity [%]
Casein kinase I isoform epsilon (CSNK1E, Homo sapiens, UniProt P49674)	93.8
Protein kinase C theta type (PRKCQ, Homo sapiens, UniProt Q04759)	89.2
Serine/threonine-protein kinase PAK 4 (PAK4, Homo sapiens, UniProt O96013)	115
Dual specificity protein kinase CLK1 (CLK1, Homo sapiens, UniProt P49759)	97.2
Serine/threonine-protein kinase PAK 6 (PAK6, Homo sapiens, UniProt Q9NQU5)	119
Tyrosine-protein kinase JAK2 (JAK2, Homo sapiens, UniProt O60674)	99
Calcium/calmodulin-dependent protein kinase type 1 (CAMK1, Homo sapiens, UniProt Q14012)	79.9
Calcium/calmodulin-dependent protein kinase kinase 1 (CAMKK1, Homo sapiens, UniProt Q8N5S9)	88.2
Serine/threonine-protein kinase pim-1 (PIM1, Homo sapiens, UniProt P11309)	92.1
Serine/threonine-protein kinase MARK1 (MARK1, Homo sapiens, UniProt Q9P0L2)	90.3
Tyrosine-protein kinase JAK1 (JAK1, Homo sapiens, UniProt P23458)	102
Mitogen-activated protein kinase kinase kinase 20 (MAP3K20, Homo sapiens, UniProt Q9NYL2)	89.8
SRSF protein kinase 1 (SRPK1, Homo sapiens, UniProt Q96SB4)	102

Block 3
Target: Runt-related transcription factor 1, full length (RUNX1, Homo sapiens, UniProt Q01196-8, residues 1-480)
Method: protein-binding microarray
Form: hairpin DNA
Matrix: in vitro
Tested at: not given
Setting: whole hairpin DNA, median over replicate spots
Baseline: not given
Reading: higher = stronger binding
Sequence	median fluorescence [a.u.]
GAGGCCCAACCGCAACCGCCTCCTGGCGGTTGCGGTTGGGCCTCACACTC (5mC at 17)	6480
GAGGCCCAACCGCAATAGCCTCCTGGCTATTGCGGTTGGGCCTCACACTC	6370
GAGGCCTTTTGTGGTTGGCCTCCTGGCCAACCACAAAAGGCCTCACACTC	3570
GAGGCCTGTCGCGGTTGGCCTCCTGGCCAACCGCGACAGGCCTCACACTC (5mC at 41)	2700
GAGGCCGGTTGCGGTTGGCCTCCTGGCCAACCGCAACCGGCCTCACACTC	7390
GAGGCCTGTCGCGGTTGGCCTCCTGGCCAACCGCGACAGGCCTCACACTC (5mC at 44)	2750
GAGGCCTGTTGTGCGTGGCCTCCTGGCCACGCACAACAGGCCTCACACTC (5mC at 14 30)	1800
GAGGCCTGTCGCGGTCGGCCTCCTGGCCGACCGCGACAGGCCTCACACTC (5mC at 28)	2510

Other studies, line by line
Compound	target	assay	conditions	quantity	value
O=C1NC(c2ccccn2)Sc2ccccc21 (stereo not drawn)	Mast/stem cell growth factor receptor Kit (KIT, Homo sapiens, UniProt P10721, D816H)	cell-free assay, competition with immobilised ligand	1 µM	remaining binding	79%

Repeated from above (block 3):
Sequence	median fluorescence [a.u.]
GAGGCCTGTTGTGCGTGGCCTCCTGGCCACGCACAACAGGCCTCACACTC (5mC at 14 30)	1800
GAGGCCTGTCGCGGTTGGCCTCCTGGCCAACCGCGACAGGCCTCACACTC (5mC at 44)	2750
